Published values from different studies.
Each numbered part is a random draw from the data of one study; scales do not carry over between parts.
Sequence of UniProt O75676 (whole entry, looked up): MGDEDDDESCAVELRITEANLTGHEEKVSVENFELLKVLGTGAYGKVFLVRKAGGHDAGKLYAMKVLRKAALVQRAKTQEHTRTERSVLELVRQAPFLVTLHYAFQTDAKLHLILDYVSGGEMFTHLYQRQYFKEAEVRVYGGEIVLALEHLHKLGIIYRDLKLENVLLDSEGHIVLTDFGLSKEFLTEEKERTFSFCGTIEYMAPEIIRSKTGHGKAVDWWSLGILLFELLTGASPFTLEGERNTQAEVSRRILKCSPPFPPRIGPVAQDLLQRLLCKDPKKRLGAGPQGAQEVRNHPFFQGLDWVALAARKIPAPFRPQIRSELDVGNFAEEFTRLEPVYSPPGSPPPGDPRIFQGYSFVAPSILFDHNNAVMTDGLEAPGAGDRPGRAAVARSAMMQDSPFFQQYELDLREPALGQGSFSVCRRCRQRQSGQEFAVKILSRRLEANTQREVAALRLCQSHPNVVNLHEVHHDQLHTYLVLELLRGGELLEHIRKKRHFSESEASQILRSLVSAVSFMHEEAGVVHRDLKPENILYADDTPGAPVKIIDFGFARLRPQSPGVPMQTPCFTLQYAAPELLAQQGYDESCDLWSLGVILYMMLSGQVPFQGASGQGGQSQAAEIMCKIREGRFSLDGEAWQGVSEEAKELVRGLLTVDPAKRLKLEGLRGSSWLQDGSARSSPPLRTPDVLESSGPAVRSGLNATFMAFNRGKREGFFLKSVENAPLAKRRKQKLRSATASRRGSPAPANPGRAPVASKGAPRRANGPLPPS
Sequence of UniProt Q8NFD2 (whole entry, looked up): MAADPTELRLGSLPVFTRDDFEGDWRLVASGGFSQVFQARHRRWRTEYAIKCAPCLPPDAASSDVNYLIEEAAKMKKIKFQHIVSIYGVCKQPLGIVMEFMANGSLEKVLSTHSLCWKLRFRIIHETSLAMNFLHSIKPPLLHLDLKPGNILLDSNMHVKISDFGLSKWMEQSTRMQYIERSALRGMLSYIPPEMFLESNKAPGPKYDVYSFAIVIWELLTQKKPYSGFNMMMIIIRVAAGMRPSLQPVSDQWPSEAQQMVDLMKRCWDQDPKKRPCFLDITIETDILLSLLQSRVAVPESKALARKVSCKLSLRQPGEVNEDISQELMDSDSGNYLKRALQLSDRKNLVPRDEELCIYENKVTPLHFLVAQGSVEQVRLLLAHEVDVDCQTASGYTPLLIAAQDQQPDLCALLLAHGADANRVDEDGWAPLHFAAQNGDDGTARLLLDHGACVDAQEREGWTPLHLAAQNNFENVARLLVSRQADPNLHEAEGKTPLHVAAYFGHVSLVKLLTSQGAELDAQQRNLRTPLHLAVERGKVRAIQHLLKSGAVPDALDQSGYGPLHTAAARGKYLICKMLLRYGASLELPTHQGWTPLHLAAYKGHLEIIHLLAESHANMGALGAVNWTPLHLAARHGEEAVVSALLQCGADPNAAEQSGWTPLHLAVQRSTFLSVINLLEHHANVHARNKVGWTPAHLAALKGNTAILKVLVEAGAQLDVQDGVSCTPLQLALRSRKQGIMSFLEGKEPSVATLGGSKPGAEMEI
Sequence of UniProt Q9BQI3 (whole entry, looked up): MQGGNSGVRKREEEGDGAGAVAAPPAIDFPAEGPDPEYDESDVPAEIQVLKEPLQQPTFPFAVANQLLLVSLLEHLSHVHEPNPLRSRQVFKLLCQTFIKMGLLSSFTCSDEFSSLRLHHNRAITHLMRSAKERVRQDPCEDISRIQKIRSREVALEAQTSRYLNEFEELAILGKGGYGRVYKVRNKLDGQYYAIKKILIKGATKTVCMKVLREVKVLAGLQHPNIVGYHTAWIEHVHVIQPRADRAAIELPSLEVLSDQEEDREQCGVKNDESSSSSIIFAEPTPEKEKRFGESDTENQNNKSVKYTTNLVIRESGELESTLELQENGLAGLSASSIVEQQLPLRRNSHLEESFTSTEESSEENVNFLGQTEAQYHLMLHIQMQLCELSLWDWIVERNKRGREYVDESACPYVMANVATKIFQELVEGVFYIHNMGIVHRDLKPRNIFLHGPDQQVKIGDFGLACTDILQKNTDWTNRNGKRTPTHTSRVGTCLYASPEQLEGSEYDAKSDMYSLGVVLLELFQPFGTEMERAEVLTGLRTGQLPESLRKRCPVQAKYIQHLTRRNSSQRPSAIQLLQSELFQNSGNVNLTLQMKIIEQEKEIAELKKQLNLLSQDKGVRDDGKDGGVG
Sequence of UniProt Q8IW41 (whole entry, looked up): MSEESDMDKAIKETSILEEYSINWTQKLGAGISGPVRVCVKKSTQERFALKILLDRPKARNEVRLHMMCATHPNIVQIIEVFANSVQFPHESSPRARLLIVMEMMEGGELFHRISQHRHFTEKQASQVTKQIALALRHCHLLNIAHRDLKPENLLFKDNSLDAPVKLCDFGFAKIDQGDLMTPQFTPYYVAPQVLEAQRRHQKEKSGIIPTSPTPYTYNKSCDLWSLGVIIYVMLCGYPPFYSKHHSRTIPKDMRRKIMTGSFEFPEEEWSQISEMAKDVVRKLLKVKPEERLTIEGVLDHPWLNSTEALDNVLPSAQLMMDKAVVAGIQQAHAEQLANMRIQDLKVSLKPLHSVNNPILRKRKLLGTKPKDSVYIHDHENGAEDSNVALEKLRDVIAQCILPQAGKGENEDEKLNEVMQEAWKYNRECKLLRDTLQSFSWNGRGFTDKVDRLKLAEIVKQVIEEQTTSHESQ
Sequence of UniProt Q9UQB9 (whole entry, looked up): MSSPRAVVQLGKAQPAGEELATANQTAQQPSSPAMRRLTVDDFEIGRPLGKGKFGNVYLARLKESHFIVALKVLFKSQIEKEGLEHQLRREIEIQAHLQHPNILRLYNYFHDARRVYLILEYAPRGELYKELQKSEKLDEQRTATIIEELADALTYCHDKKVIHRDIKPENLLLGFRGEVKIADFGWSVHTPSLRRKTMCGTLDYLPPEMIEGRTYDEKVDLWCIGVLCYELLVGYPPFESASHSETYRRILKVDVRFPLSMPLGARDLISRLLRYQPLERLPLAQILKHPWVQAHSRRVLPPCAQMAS
Sequence of UniProt Q16566 (whole entry, looked up): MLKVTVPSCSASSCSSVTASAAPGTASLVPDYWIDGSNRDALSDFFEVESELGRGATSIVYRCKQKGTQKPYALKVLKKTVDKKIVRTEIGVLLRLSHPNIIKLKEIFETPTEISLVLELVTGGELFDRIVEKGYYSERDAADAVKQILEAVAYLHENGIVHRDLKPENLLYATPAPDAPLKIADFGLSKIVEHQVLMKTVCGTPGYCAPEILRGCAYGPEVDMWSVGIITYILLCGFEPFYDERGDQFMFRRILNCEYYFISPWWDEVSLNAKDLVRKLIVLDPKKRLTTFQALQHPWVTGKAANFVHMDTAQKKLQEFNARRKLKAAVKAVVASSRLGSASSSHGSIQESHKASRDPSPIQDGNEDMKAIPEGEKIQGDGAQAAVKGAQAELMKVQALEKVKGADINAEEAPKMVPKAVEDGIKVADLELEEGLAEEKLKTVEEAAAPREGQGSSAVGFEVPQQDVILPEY
Sequence of UniProt O94921 (whole entry, looked up): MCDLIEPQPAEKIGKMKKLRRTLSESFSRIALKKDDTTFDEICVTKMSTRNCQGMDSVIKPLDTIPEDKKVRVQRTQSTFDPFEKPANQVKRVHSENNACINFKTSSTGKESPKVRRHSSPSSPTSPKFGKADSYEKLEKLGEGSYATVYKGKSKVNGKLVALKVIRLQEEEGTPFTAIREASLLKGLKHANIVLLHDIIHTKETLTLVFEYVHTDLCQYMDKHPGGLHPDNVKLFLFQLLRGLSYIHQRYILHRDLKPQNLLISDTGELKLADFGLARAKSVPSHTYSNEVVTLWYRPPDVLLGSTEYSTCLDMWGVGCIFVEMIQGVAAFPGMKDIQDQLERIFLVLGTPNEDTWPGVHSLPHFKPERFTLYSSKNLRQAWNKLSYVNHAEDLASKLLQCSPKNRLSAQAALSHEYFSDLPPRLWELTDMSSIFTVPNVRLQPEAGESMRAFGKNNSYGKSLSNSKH

Study 1
Structure (SMILES): CNC(=O)c1ccc(Nc2ncc(C(F)(F)F)c(NCc3nccnc3N(C)S(C)(=O)=O)n2)cc1
Read-out: cell-free assay
Method: competition with immobilised ligand
Tested at: 0.1 µM
Quantity: remaining binding
target = Aurora kinase C (AURKC, Homo sapiens, UniProt Q9UQB9); result = 47%
target = Ribosomal protein S6 kinase alpha-4, C-terminal kinase domain (RPS6KA4, Homo sapiens, UniProt O75676); result = 57%
target = CDK14 (Homo sapiens, UniProt O94921); result = 88%
target = EIF2AK1 (Homo sapiens, UniProt Q9BQI3); result = 85%
target = CAMK4 (Homo sapiens, UniProt Q16566); result = 100%
target = MAPKAPK5 (Homo sapiens, UniProt Q8IW41); result = 76%
target = ANKK1 (Homo sapiens, UniProt Q8NFD2); result = 88%

Study 2
Target: SRSF protein kinase 2 (SRPK2, Homo sapiens, UniProt P78362)
Sequence of UniProt P78362 (whole entry, looked up): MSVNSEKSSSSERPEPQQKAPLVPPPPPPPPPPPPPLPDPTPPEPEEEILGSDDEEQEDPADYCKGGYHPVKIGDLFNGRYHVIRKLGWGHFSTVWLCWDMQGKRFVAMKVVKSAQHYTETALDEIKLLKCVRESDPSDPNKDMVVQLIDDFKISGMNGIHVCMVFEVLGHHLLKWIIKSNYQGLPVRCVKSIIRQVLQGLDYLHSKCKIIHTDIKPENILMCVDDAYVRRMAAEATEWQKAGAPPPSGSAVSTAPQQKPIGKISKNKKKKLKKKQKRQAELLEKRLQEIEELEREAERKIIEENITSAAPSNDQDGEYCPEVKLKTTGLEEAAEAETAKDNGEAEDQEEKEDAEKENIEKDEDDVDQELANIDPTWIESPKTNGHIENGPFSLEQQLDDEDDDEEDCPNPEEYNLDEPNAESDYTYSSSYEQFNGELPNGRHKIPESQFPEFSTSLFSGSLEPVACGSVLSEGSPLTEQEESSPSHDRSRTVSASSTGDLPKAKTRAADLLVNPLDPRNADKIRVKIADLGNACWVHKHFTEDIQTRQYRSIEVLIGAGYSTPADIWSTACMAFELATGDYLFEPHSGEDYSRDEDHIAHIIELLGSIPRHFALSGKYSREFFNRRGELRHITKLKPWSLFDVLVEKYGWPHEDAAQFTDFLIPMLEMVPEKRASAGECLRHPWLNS
Read-out: enzyme activity
Mode: inhibitor
Tested at: 0.5 µM
Reference: control
Quantity: remaining activity
SMILES = CN(C)C[C@H]1CCn2c(c(C3=C(c4cn(C)c5ccccc45)C(=O)NC3=O)c3ccccc32)C1; result = 91.5%
SMILES = O=C1c2ccccc2-c2n[nH]c3cccc1c23; result = 86.1%
SMILES = O=c1cc(-c2cccc3c2Sc2ccccc2S3)oc(N2CCOCC2)c1; result = 110%
SMILES = COc1cc2ncnc(Nc3ccc(O)c(Br)c3)c2cc1OC; result = 63%
SMILES = N#Cc1c(NC(=O)c2cccc3ccccc23)sc2c1CCCC2; result = 99.2%
SMILES = CCN(CC)CCNC(=O)c1c(C)[nH]c(/C=C2\C(=O)Nc3ccc(F)cc32)c1C; result = 95%
SMILES = CN([C@@H](Cc1ccc(OS(=O)(=O)c2cccc3cnccc23)cc1)C(=O)N1CCN(c2ccccc2)CC1)S(=O)(=O)c1cccc2cnccc12; result = 99.4%
SMILES = CCOc1nc(NC(=O)Cc2cc(OC)ccc2OC)cc(N)c1C#N; result = 97.8%
SMILES = Ic1cccc(CSc2nnc(-c3ccncc3)o2)c1; result = 97.4%

Single results of other studies
SMILES = O=C1CCC(N2Cc3cc(C4CCN(Cc5ccccc5)CC4)ccc3C2=O)C(=O)N1 (stereo not drawn); test system = male CD-1 mouse, plasma; conditions = intravenous, 1 mg/kg; quantity = Vd; result = 9.43 L/kg
SMILES = CC(C)n1cnc(-c2ccc(F)cc2)c1-c1ncc(C(=O)Nc2ccc(N3CCN(C)CC3)cc2)[nH]1; test system = IPF patients; conditions = 30 mg once daily, adverse event incidence; quantity = blood glucose increased; result = 0%
